{"data": "Assay results of several laboratories", "note": "Parts stem from different laboratories: compare values within a part only. Positions count from the first letter of the parent shown."}
{"data": "Set 1", "target": "Phosphate system positive regulatory protein PHO4, full length, GST-tagged (PHO4, Saccharomyces cerevisiae, UniProt P07270, residues 1-312)", "technique": "competition protein-binding microarray", "molecule type": "double-stranded DNA, one strand shown", "medium": "in vitro", "concentration": "2 µM", "notes": "whole 60-bp probe, lowest competitor level", "added": "Cbf1 competitor, 0.05 µM", "direction": "higher = stronger binding", "all sequences stand within": "… GTCTTGATTCGCTTGACGCTGCTG", "Target sequence (chain)": "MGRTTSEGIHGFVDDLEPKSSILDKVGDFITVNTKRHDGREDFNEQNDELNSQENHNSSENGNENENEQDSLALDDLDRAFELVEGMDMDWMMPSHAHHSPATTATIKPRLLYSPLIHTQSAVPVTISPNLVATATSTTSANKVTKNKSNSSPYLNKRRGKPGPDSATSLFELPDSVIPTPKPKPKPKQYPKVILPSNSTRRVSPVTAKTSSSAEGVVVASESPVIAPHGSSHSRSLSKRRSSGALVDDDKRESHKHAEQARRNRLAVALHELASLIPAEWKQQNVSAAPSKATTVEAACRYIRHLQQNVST"}
{"Sequence": "CAATAATATCATAATCATATGACGGTTCTTCGTCAA", "fluorescence intensity [a.u.]": 3790}
{"Sequence": "TCCGAAATGCGATAAGTCGTGATGGGGTTACCTCGA", "fluorescence intensity [a.u.]": 4070}
{"Sequence": "CTTCTGTAAATTTGCGCCGTGGGTGGACGCGCCCCG", "fluorescence intensity [a.u.]": 5500}
{"Sequence": "GGAAATAACGCTCGAGGCGTGCTTTGTCCTTTTTTG", "fluorescence intensity [a.u.]": 7570}
{"Sequence": "TGCGCAACAACTTGGAACGTGGGTGTATGTCTAGAA", "fluorescence intensity [a.u.]": 12200}
{"Sequence": "GTCCCCCCGCCACACATCGTGGAATAATCGCTATCG", "fluorescence intensity [a.u.]": 6400}
{"Sequence": "CTCAATTATGGCCTCCACGTGCGGACGGGCGGCTAG", "fluorescence intensity [a.u.]": 16100}
{"Sequence": "GTCTTGTCTCATTGCACTGTGGGTGTCCCCACTTCA", "fluorescence intensity [a.u.]": 5120}
{"data": "Set 2", "Variant": "I57N", "target": "ABI1, truncated, D143A, DHFR fusion (Arabidopsis thaliana)", "technique": "DHFR PCA, deep sequencing", "medium": "yeast", "notes": "methotrexate growth selection, single substitutions", "relative to": "wild-type fitted maximum", "direction": "higher = stronger binding", "starting sequence": "PYL1, truncated, DHFR fusion (Arabidopsis thaliana); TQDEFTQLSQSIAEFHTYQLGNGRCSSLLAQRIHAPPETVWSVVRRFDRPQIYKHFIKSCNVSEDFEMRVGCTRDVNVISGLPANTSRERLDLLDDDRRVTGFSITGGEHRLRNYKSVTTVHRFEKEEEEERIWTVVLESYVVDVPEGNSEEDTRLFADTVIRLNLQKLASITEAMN; partner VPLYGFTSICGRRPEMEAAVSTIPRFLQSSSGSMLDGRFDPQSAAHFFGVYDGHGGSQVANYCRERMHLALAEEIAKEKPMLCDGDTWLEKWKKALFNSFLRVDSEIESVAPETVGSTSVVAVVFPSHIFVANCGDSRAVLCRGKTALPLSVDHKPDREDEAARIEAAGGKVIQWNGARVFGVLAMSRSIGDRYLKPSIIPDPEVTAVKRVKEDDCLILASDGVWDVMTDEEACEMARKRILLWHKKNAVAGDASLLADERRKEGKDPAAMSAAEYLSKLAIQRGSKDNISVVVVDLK"}
{"setting": "added: (+)-ABA 0.39 µM", "relative binding score [%]": -21.7}
{"setting": "added: (+)-ABA 0.032 µM", "relative binding score [%]": -4.58}
{"setting": "added: (+)-ABA 4.8 µM", "relative binding score [%]": -1.3}
{"setting": "added: (+)-ABA 1.4 µM", "relative binding score [%]": 2.79}
{"setting": "added: (+)-ABA 200 µM", "relative binding score [%]": -0.283}
{"setting": "added: (+)-ABA 58 µM", "relative binding score [%]": -3.31}
{"data": "Mixed results", "P1": "PafA, mature enzyme, eGFP fusion (Elizabethkingia meningoseptica, UniProt Q9KJX5); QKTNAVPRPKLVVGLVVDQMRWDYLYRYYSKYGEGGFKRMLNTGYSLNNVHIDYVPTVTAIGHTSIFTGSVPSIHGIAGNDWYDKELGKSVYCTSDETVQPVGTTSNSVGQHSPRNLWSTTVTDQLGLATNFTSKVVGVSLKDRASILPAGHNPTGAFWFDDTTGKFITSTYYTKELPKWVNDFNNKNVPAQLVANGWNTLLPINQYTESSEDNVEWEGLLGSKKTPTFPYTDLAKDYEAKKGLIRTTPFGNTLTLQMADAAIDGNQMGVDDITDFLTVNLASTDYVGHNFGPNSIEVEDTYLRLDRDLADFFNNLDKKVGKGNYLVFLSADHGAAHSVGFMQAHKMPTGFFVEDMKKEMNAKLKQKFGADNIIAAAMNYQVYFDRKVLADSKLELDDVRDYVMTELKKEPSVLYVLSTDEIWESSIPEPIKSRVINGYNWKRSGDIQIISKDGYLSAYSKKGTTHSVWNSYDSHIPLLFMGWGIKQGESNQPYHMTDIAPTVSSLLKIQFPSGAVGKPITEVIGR", "P2": "viral docking peptide; TSVRRALFTGGSD; partner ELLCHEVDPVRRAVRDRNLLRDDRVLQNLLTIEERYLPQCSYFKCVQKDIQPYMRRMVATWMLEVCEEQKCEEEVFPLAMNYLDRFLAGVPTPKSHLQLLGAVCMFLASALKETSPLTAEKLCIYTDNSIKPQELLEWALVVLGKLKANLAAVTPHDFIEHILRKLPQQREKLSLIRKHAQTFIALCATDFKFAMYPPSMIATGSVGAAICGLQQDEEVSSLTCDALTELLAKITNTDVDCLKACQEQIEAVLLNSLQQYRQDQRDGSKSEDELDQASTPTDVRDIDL"}
{"Variant": "P1 T68G", "target": "tungstate, free oxyanion", "assay": "microfluidic competitive inhibition", "test system": "in vitro, cell-free expressed", "setting": "not given, derived from inhibition constants, unchanged parent 2230 nM", "how to read": "lower = stronger binding", "quantity": "oxyanion analog dissociation constant", "value": "1 µM"}
{"Variant": "P2 L7Q", "target": "CCND2, cyclin fold, Cln2 fusion (human)", "assay": "yeast growth competition, sequencing", "test system": "yeast", "setting": "weak parent motif", "how to read": "relative to: not given, higher = stronger binding", "quantity": "normalised enrichment score", "value": -0.0146}
{"Variant": "P1 L478V", "target": "tungstate, free oxyanion", "assay": "microfluidic competitive inhibition", "test system": "in vitro, cell-free expressed", "setting": "not given, derived from inhibition constants, unchanged parent 2230 nM", "how to read": "lower = stronger binding", "quantity": "oxyanion analog dissociation constant", "value": "2.89 µM"}
{"note": "A few entries again (set 1):"}
{"Sequence": "TGCGCAACAACTTGGAACGTGGGTGTATGTCTAGAA", "fluorescence intensity [a.u.]": 12200}
{"Sequence": "GTCCCCCCGCCACACATCGTGGAATAATCGCTATCG", "fluorescence intensity [a.u.]": 6400}
